Results collected from several papers.
Each line is one published result; not all experiments were run side by side. Several values in a cell are separate wells, animals, samples, runs or records. ± marks the error that the study gave.

COc1c(N2CC3CCCNC3C2)c(F)cc2c(=O)c(C(=O)OCc3cnc([N+](=O)[O-])s3)cn(C3CC3)c12 (stereo not shown) — remaining compound (LC-MS; human serum; 30 µM, 2 h; reference: initial amount): > 65%
CC(=O)OC/C(C)=C/CCP(=O)(OCOC(=O)CC1CCOCC1)Oc1cccc2ccccc12 (stereo not shown) — remaining compound (50% CD1 mouse plasma; 100 µM, 2 h, pH 7.5, 37 °C): 0%
Cc1ncc2n1-c1ccc(Cl)cc1C(c1ccccc1F)=NC2 — remaining compound (cell-free culture medium; 5 µM, 72 h, cell-free MPS plate; reference: initial amount): 100%
CC[C@@H](C)[C@@H](NC(=O)[C@@H](Cc1ccc(O)cc1)NC(=O)[C@H]1CCCN1C(=O)[C@@H](CCCNC(=N)N)NC(=O)[C@H](N)Cc1c[nH]cn1)C(=O)N[C@H](C)C(=O)N[C@H](Cc1c[nH]cn1)C(=O)N[C@H](CCCNC(=N)N)C(=O)N[C@H](CCCCNC(=O)c1cccc(S(=O)(=O)F)c1)C(=O)N[C@H](Cc1ccc(O)cc1)C(=O)N[C@H](CO)C(=O)N[C@H](Cc1ccccc1)C(N)=O — remaining compound (10% human serum; 6 h): 109% and 111% and 110%
C[C@@H](NC(=O)[C@@H](N)Cc1ccc(O)cc1)C(=O)NCC(=O)N[C@@H](Cc1ccc(F)cc1)C(=O)N1CCN(C(=O)[C@H](Cc2ccc(F)cc2)NC(=O)CNC(=O)[C@@H](C)NC(=O)[C@@H](N)Cc2ccc(O)cc2)CC1 — remaining compound (LC-MS; human plasma; 5 µM, 1 h, 37 °C): 98.8%
CC(C)(C)[C@H](NC(=O)C(F)(F)F)C(=O)N1C[C@H]2[C@@H]([C@H]1C(=O)N[C@H](C#N)C[C@@H]1CCNC1=O)C2(C)C — remaining compound (human liver microsomes; 60 min, together with: NADPH): 35.7%
C/C(=C\CCP(=O)(OCOC(=O)CC1CCCCC1)Oc1ccc(C(C)C)cc1)CO (stereo not shown) — remaining compound (50% Sprague-Dawley rat plasma; 100 µM, 2 h, pH 7.5, 37 °C): 0%
CC[C@H](C)[C@H](NC(=O)[C@H](CCCCN)NC(=O)[C@H](CC(N)=O)NC(=O)[C@H](CCCNC(=N)N)NC(=O)[C@H](C)NC(=O)[C@H](CC(C)C)NC(=O)[C@H](CC(C)C)NC(=O)[C@H](CCSC)NC(=O)[C@H](Cc1c[nH]cn1)NC(=O)[C@H](CC(C)C)NC(=O)[C@@H](N)CC(C)C)C(=O)N[C@@H](CCCNC(=N)N)C(=O)N[C@H](C(=O)N[C@@H](CC(C)C)C(=O)N[C@@H](CCCCN)C(=O)N[C@@H](CC(N)=O)C(=O)N[C@@H](CC(N)=O)C(=O)N[C@@H](CCSC)C(=O)N[C@@H](Cc1ccccc1)C(=O)N[C@@H](CO)C(=O)N[C@@H](CCCCN)C(=O)N[C@@H](Cc1ccccc1)C(=O)N[C@@H](CCCCN)C(=O)N[C@@H](CCCCN)C(=O)N[C@@H](CC(C)C)C(=O)N[C@@H](CCCCN)C(=O)N[C@@H](CO)C(=O)N[C@@H](CC(C)C)C(=O)O)[C@@H](C)O — remaining compound (UPLC-MS; 25% human serum; 6 h): ≤ 65%
c1ccc([C@@H]2C[C@H]2NC2CCNCC2)cc1 — remaining compound (LC-MS; PBS with 25% DMSO; 5 mM, 144 h, 37 °C): 95%
CC(=O)OC/C(C)=C/CCP(=O)(OCOC(=O)C1CCOCC1)Oc1ccc(C(C)C)cc1 (stereo not shown) — remaining compound (50% CD1 mouse plasma; 100 µM, 2 h, pH 7.5, 37 °C): 0%
CC(C)CC(=O)OC[C@H]1O[C@@](C#N)(c2ccc3c(N)ncnn23)[C@H](O)[C@@H]1O — remaining compound (mouse hepatocytes; 5 µM, 15 min): 0.891 ± 0.261%
O=S(=O)(F)Oc1cc(C(F)(F)F)cc(C(F)(F)F)c1 — remaining compound (HPLC-MS; HEPES buffer with 10% acetonitrile; 1 mM, 1 h, pH 7.4): 65%
CCN(CC)CCOC(=O)c1ccc(N)cc1 — remaining compound (human plasma; 24 h): 0%
COc1ccc(C(=O)OCOP(=O)(CC/C=C(\C)CO)Oc2ccc(C(C)C)cc2)cc1 (stereo not shown) — remaining compound (50% CD1 mouse plasma; 100 µM, 2 h, pH 7.5, 37 °C): 0%
CC[C@@H](C)[C@@H](NC(=O)[C@@H](Cc1ccc(O)cc1)NC(=O)[C@H]1CCCN1C(=O)[C@@H](CCCNC(=N)N)NC(=O)[C@H](N)Cc1c[nH]cn1)C(=O)N[C@H](C)C(=O)N[C@H](Cc1c[nH]cn1)C(=O)N[C@H](CCCNC(=N)N)C(=O)N[C@@H](C(=O)N[C@H](Cc1ccc(O)cc1)C(=O)N[C@H](CO)C(=O)N[C@H](Cc1ccccc1)C(N)=O)C(C)C — remaining compound (10% human serum; 24 h): 93.7% and 93.9% and 85.1%
CC(=O)OC/C(C)=C/CCP(=O)(OCOC(=O)CC1CCOCC1)Oc1ccc(C(C)C)cc1 (stereo not shown) — remaining compound (50% CD1 mouse plasma; 100 µM, 2 h, pH 7.5, 37 °C): 0%
O=S(=O)(F)c1cc(C(F)(F)F)cc(C(F)(F)F)c1 — remaining compound (HEPES buffer; 1 mM, 20 h, pH 7.4, 10% acetonitrile): 17%
CC(=O)OC/C(C)=C/CCP(=O)(OCOC(=O)c1ccccc1)Oc1ccc(C(C)C)cc1 (stereo not shown) — remaining compound (50% CD1 mouse plasma; 100 µM, 2 h, pH 7.5, 37 °C): 0%
CCC[C@@](N)(CO)CCc1ccc(OCCCCCC(C)C)cc1 — remaining compound (dog liver microsomes; 1 h): 88%

Excerpt of the above:
COc1ccc(C(=O)OCOP(=O)(CC/C=C(\C)CO)Oc2ccc(C(C)C)cc2)cc1 (stereo not shown) — remaining compound (50% CD1 mouse plasma; 100 µM, 2 h, pH 7.5, 37 °C): 0%
CC[C@H](C)[C@H](NC(=O)[C@H](CCCCN)NC(=O)[C@H](CC(N)=O)NC(=O)[C@H](CCCNC(=N)N)NC(=O)[C@H](C)NC(=O)[C@H](CC(C)C)NC(=O)[C@H](CC(C)C)NC(=O)[C@H](CCSC)NC(=O)[C@H](Cc1c[nH]cn1)NC(=O)[C@H](CC(C)C)NC(=O)[C@@H](N)CC(C)C)C(=O)N[C@@H](CCCNC(=N)N)C(=O)N[C@H](C(=O)N[C@@H](CC(C)C)C(=O)N[C@@H](CCCCN)C(=O)N[C@@H](CC(N)=O)C(=O)N[C@@H](CC(N)=O)C(=O)N[C@@H](CCSC)C(=O)N[C@@H](Cc1ccccc1)C(=O)N[C@@H](CO)C(=O)N[C@@H](CCCCN)C(=O)N[C@@H](Cc1ccccc1)C(=O)N[C@@H](CCCCN)C(=O)N[C@@H](CCCCN)C(=O)N[C@@H](CC(C)C)C(=O)N[C@@H](CCCCN)C(=O)N[C@@H](CO)C(=O)N[C@@H](CC(C)C)C(=O)O)[C@@H](C)O — remaining compound (UPLC-MS; 25% human serum; 6 h): ≤ 65%
